Experimental data pooled from the literature.
A part holds a random share of what one study measured. Positions count from the first letter of the parent shown.

Set 1
Target: CCNF, cyclin fold, Cln2 fusion (human)
Technique: yeast growth competition, sequencing
Matrix: yeast
Notes: strong parent motif
Relative to: not given
Direction: higher = stronger binding
Parent: TICRR docking peptide (human); TKVRRNLFNQELL; partner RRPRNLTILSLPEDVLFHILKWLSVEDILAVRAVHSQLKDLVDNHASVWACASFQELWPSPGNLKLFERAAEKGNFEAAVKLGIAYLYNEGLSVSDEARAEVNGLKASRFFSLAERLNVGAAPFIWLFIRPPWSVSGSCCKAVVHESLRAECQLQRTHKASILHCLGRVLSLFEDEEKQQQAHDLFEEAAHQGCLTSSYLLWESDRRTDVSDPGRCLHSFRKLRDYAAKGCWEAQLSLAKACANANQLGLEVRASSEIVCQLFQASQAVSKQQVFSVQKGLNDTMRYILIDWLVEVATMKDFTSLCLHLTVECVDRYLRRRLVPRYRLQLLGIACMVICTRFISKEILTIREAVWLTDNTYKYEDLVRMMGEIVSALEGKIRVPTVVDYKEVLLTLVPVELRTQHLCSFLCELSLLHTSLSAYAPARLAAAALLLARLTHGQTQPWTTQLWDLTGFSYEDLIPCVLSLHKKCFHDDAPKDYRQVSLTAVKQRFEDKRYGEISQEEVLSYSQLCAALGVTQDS
| Variant | normalised enrichment score |
| --- | --- |
| Q10A | 5.59 |
| R5A | 0.91 |
| L13A | 7.24 |
| R5K F8L | 0.788 |
| N6A | 7.53 |
| R4A | 5.37 |
| N9A | 6.82 |

Set 2
Target: RNA binding protein fox-1 homolog 2, RRM domain, GST-SBP tag (RBFOX2, Homo sapiens, UniProt O43251-10, residues 100-194)
Technique: RNA Bind-n-Seq
Molecule type: RNA
Matrix: in vitro
Tested at: 365 nM
Notes: natural RNA segment, single round, ends assumed
Relative to: no-protein control
Direction: higher = stronger binding
Shared flanks, not repeated: GGGAGUUCUACAGUCCGACGAUC … UGGAAUUCUCGGGUGCCAA
Target sequence (chain): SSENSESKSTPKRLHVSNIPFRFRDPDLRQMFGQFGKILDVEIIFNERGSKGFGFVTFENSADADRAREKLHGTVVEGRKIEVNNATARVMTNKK
| Sequence | RBNS enrichment (R) |
| --- | --- |
| GGGAAGGUCUCCCACAUUAUGCAAUAAUAAAAUAAGCAUCUGGGUCUUUGCAGCUGUCAGUUGCUCUUUCAACUCUAGGAUCCAUCUUUGGACCAGAAGCCUGGUCUGUG | 0.277 |
| UGAUUCAGCAGGCCCUUCCCAUUCUGCCCCAGAGUGGGUCUUGGACCAGGGCAAGUGCAUCUUUGCCUCAACUCCAGGAUUUAGGCCUUAACACACUGGCCAUUCUUAUG | 0.653 |
| CUUGCAGCUGUGUCCCAUGUGGCAUCCCAGAGCUGCGCCCUGCUGGUCUCUGUGAGCGCCACGCUGCUGUGCUGGAAAUGCCGCUUUAAAAAGGGAUACCGUGGGACUCU | 0.351 |
| UAAUAACAAUAAGGAGUAAGCCACCUUUUAUAGGCACCCUGUAGUUUUAUAGUUCUUAAUCUAAACAUUUUAUAUUUCCUUCUUUUGGAAAAAACCUACAUGCUACAAGC | 0.775 |
| UCUGUAUAUAUAGAGACCACAGAGUUAGGAUUUUUUUUAAUGAGAAAAAUACUGUAUUUAAAAUGUAAAAUAAACUUUUAAAAAGCAAGCACUAAUAUAUAUUUCUUUCA | 1.32 |
| CCCCCAUGUACCCCCACCUGUGUUCCGUUUGACCAGCACAGAAAUAUUAAAGUCCUCUAUUUACCGGCCCUGUGUGUGUCACCAAGGUGAGAAAGGAGAGGGCCCUUGGA | 0.664 |
| CUUCUUCCCCAAUAUGCCUGCGCCAUCUUCACAUUCUGAAGUUGAAACCCAUGAUCACCCCUUUGAGGUAGAUUGACCGGCUUUAGACGCCCACCCCCCACCCACCGCAA | 0.544 |
| UGUUAGGAUUCCCACACGAACACCAAGCUACUCAGCCAUAACAUAUGCAGAGGACUUGCUCAGACUCCUACAGGCUCCUGAUCACUGCAAGCCCCCAGUACCGGUCAGUU | 0.246 |

Set 3
Target: PABPC1L2, full length, GST fusion (mouse, UniProt A0ABA7IW68)
Technique: RNAcompete
Molecule type: RNA
Matrix: in vitro
Tested at: 20 nM
Notes: 7-mer, probes averaged, single round
Relative to: mean of 7-mers
Direction: higher = stronger binding
Construct (chain): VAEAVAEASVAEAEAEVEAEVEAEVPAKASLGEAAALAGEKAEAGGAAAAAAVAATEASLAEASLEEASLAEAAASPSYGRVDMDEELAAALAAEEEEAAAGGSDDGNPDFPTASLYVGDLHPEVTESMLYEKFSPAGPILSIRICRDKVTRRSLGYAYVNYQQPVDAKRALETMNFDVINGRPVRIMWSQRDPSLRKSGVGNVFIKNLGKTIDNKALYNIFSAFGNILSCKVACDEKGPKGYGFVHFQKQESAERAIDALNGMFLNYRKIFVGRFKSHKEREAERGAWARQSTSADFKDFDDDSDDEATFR
| Sequence | 7-mer Z-score |
| --- | --- |
| UAGCACG | -0.159 |
| ACUAUUC | -0.238 |
| ACUGAAU | -0.195 |
| UUGCACC | -0.24 |
| GGCCACG | -0.00833 |
| UGCAUCG | -0.302 |
| GGCUGCC | -0.296 |
| UAUAGCU | -0.117 |
| GUCCACU | -0.324 |
| CGCAUCA | -0.115 |
| CUUGAGA | -0.108 |
| GCUAAGA | -0.122 |
| CGACAUU | -0.122 |
| CAAUGAA | 0.231 |
| AAAAAAU | 22.1 |
| UACACGC | -0.264 |
| AUGCCAU | -0.117 |
| UGACUUG | -0.235 |
| AACAACC | 0.517 |
| UGGAGUC | -0.186 |
| CUGUGGA | 0.189 |
| ACAGUAC | 0.0714 |
| GGCGGUC | 0.24 |
| GUAACAA | 0.178 |

Set 4
Target: ABI1, truncated, D143A, DHFR fusion (Arabidopsis thaliana)
Technique: DHFR PCA, deep sequencing
Matrix: yeast
Notes: methotrexate growth selection, single substitutions
Added: (+)-ABA 1.4 µM
Relative to: wild-type fitted maximum
Direction: higher = stronger binding
Parent: PYL1, truncated, DHFR fusion (Arabidopsis thaliana); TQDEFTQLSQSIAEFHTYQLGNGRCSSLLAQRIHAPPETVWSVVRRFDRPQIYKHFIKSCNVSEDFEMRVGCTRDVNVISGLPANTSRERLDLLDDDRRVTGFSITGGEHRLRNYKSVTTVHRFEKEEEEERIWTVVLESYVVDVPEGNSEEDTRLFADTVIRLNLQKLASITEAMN; partner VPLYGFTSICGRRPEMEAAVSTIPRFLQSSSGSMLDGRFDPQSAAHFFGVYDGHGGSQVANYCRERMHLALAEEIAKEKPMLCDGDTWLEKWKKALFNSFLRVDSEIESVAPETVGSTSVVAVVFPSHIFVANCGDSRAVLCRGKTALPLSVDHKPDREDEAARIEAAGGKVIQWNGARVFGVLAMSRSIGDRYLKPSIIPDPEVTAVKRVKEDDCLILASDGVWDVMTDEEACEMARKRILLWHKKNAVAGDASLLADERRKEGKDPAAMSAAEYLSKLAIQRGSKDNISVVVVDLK
| Variant | relative binding score [%] |
| --- | --- |
| H34Y | 36.3 |
| V40G | 0.402 |
| W134D | 52.3 |
| R98C | 10.2 |
| S59W | 4.48 |
| E129I | 41.6 |
| G81C | 4.68 |
| G71P | -4.97 |
| G71I | 0.248 |
| P50A | -7.63 |
| N85R | 83.1 |
| D144T | 2.83 |
| D65R | 27.3 |
| E151F | 11.2 |
| F157N | -2.5 |
| G102Y | -2.29 |
| S63G | 65.3 |

Set 5
Target: Interferon regulatory factor 7, full length, phosphomimetic (IRF7, Homo sapiens, UniProt Q92985, residues 1-503, S101K/S471D/S472D/S475D/S476D/S477D/S483D/S484D/S487D)
Technique: protein-binding microarray
Molecule type: double-stranded DNA, one strand shown
Matrix: in vitro
Tested at: 250 nM
Notes: 60-bp whole probe
Added: salmon DNA 0.4 mg/ml
Relative to: random background probes
Direction: higher = stronger binding
Shared flanks, not repeated: GCCTAGCAC … GTCTTGATTCGCTTGACGCTGCTG
Construct (chain): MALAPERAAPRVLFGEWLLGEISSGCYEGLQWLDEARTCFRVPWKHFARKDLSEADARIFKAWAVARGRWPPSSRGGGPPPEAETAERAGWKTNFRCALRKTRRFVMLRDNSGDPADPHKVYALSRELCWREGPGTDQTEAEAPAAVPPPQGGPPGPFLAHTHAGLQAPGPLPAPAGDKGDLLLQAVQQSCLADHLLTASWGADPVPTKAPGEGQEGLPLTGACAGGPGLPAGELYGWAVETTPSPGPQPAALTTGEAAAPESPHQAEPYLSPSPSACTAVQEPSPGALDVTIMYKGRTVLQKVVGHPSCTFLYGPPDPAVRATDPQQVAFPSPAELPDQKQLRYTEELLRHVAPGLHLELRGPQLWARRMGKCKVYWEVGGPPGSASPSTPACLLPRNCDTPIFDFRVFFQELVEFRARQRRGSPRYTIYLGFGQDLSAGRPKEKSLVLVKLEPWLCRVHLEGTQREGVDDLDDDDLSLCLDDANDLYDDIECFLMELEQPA
| Sequence | log fluorescence [z-score] |
| --- | --- |
| TGAGGTATCGGTTTCGGTTAGTGCTAG | 10.1 |
| GGAGGCCTCTTCATTCATTAAGTGCTA | -0.777 |
| GACGACATCGGGTTTCGAGACGTGCTA | 2.21 |
| TCAACACTAGTTTTCATACTGTGCTAG | 0.176 |
| TTAGGTATCGACCTTCGGTTAGTGCTA | 0.185 |
| GACGGACTGGGTTTCGGCACGTGCTAG | 0.182 |
| GAGGATTTCGGGACTGGAGACGTGCTA | -0.482 |
| GACAATTTCAGTTTCGAGACGTGCTAG | 5.32 |
| GACGGTCTCCTTATCCTGGCGTGCTAG | 0.223 |
| GACGGACTGAGTATCGAGACGTGCTAG | -0.21 |
| TTAGGTACCGGGTATCGGTTAGTGCTA | 1.04 |
| GACGGTCTTCTTTTCCTGACGTGCTAG | 0.734 |
| CACTTTCTTTAACTCATTCTGTGCTAG | 2.06 |
| GACGAACTGAGTATCGAGCCGTGCTAG | -0.18 |
| GACGGTTTCCTTTCTCTGACGTGCTAG | 6.02 |
| GACGAACTGGGGACGGGAGACGTGCTA | -0.236 |
| TTAGTACTGGGTTTCGGTTAGTGCTAG | 7.06 |
| TTAGAACTGGGGACTGGGTTAGTGCTA | -0.438 |
| ATCTCACTCTAATCTCACTCTGTGCTA | 0.319 |

For quick reference, copied from above (set 3):
| Sequence | 7-mer Z-score |
| --- | --- |
| GGCUGCC | -0.296 |
| UAUAGCU | -0.117 |
| GUCCACU | -0.324 |
| CGCAUCA | -0.115 |
